# Experimental data from different studies.
# Each line is one published result; not all experiments were run side by side. Several values in a cell are separate wells, animals, samples, runs or records. ± gives the spread as reported.
SMILES,tested on,test,system,conditions,how to read,quantity,result
CNC(C)Cc1ccc2c(c1)OCO2 (centres unmarked),,measured: body temperature,wild-type mice,"i.p., 25 mg/kg, added: methamphetamine 3 mg/kg",relative to: time point -5,time to significant hyperthermia,30 min
CC(C)C[C@H](CN)CC(=O)O,,visual analogue scale,"healthy male subjects, capsaicin responders, capsaicin-treated skin",150 mg,relative to: placebo,VAS pain difference,-13.2%
COC(=O)[C@H]1[C@H]2C[C@@H]3c4[nH]c5cc(OC)ccc5c4CCN3C[C@H]2C[C@@H](OC(=O)c2cc(OC)c(OC)c(OC)c2)[C@@H]1OC,Plasmodium falciparum,,Dd2,,,IC50,2510 nM
COc1ccc2c3c1O[C@H]1C(=O)CC[C@@]4(O)[C@@H](C2)N(C)CC[C@]314,,electronic von Frey,"mouse, carrageenan allodynia","intraperitoneal, 1 mg/kg, 10 min",,paw withdrawal threshold,2.7 ± 0.3 g
COc1ccc2[nH]cc(CCN)c2c1,,"binding, MIDAS equilibrium dialysis LC-MS",A2AR-BRIL thermostabilized,concentration not given,relative to: no-protein control,log2 fold change,2.38
COC(=O)[C@H]1[C@@H](OC(=O)c2ccccc2)C[C@@H]2CC[C@H]1N2C,,,"mouse, nucleus accumbens","i.p., 20 mg/kg, single injection",,dopamine signal,increased
C#CCN(C)[C@H](C)Cc1ccccc1,,footprint test,MPTP-induced Parkinson's disease mouse model,"10 mg/kg, trial 3",,corridor crossing time,5.59 s and 6.78 s and 5.74 s and 7 s and 4.09 s and 7.38 s and 5.12 s and 4.39 s
CN[C@@H](C)Cc1ccccc1,,measured: body temperature,wild-type mice,"i.p., 3 mg/kg, added: MDMA 25 mg/kg",relative to: time point -5,time to significant hyperthermia,75 min
C#CCN(C)[C@H](C)Cc1ccccc1,,passive avoidance retention,APP/PS1 mice,"oral, 10 mg/kg, 672 h, 4 weeks treatment",,step-through latency,209 ± 57.8 s
CNC1(c2ccccc2Cl)CCCCC1=O (racemic),,forced swim test,CD-1 mice,"intraperitoneal, 10 mg/kg, 24 h, added: saline pre-treatment",relative to: vehicle,immobility duration,decreased
CCNC(=O)N1CCN(CCCC(c2ccc(F)cc2)c2ccc(F)cc2)CC1,Plasmodium falciparum,,D10,,,IC50,2000 nM

# Excerpt of the above:
SMILES,tested on,test,system,conditions,how to read,quantity,result
COc1ccc2[nH]cc(CCN)c2c1,,"binding, MIDAS equilibrium dialysis LC-MS",A2AR-BRIL thermostabilized,concentration not given,relative to: no-protein control,log2 fold change,2.38
COC(=O)[C@H]1[C@@H](OC(=O)c2ccccc2)C[C@@H]2CC[C@H]1N2C,,,"mouse, nucleus accumbens","i.p., 20 mg/kg, single injection",,dopamine signal,increased
